Measured values from different studies.
Protocols differ between the studies behind these lines. ± gives the spread as reported.
rep nsp13 helicase: Replicase polyprotein 1ab, nsp13 helicase (rep, Severe acute respiratory syndrome coronavirus 2, UniProt P0DTD1)
rep nsp12 with nsp14/nsp10: Replicase polyprotein 1ab, nsp12 with nsp14/nsp10 (rep, Severe acute respiratory syndrome coronavirus 2, UniProt P0DTD1)
rep papain-like protease: Replicase polyprotein 1ab, papain-like protease (rep, Severe acute respiratory syndrome coronavirus 2, UniProt P0DTD1)
rep main protease: Replicase polyprotein 1ab, main protease (rep, Severe acute respiratory syndrome coronavirus 2, UniProt P0DTD1)

| Structure (SMILES) | target | test | system | setting | endpoint | result |
| --- | --- | --- | --- | --- | --- | --- |
| Cc1ccc(C)n1NC1=NC(=O)CS1 | rep nsp13 helicase | helicase ATPase activity, inhibitor, Kinase-Glo luminescence |  |  | IC50 | > 150 µM |
| Nc1nc2c(ncn2[C@H]2C[C@H](O)[C@@H](CO)O2)c(=S)[nH]1 | rep nsp12 with nsp14/nsp10 | RdRp activity, inhibitor, CoV-RdRp-Gluc reporter | HEK293T, SARS-CoV-2 | with proofreading, added: nsp7, nsp8, nsp10 and nsp14 | EC50 | 8.68 µM |
| CCC(C(=O)Nc1cc(NC2CNC2)ccc1C)n1cc(Br)cc2nc(SCc3ccc(F)cc3)nc1-2 (stereo not shown) | rep papain-like protease | binding |  |  | Kd | 0.141 ± 0.029 µM |
| Nc1nc(F)nc2c1ncn2[C@@H]1O[C@H](COP(=O)(O)O)[C@@H](O)[C@@H]1O | rep nsp12 with nsp14/nsp10 | RdRp activity, inhibitor, CoV-RdRp-Gluc reporter | HEK293T, SARS-CoV-2 | with proofreading, added: nsp7, nsp8, nsp10 and nsp14 | EC50 | 6.69 µM |
| N#C[C@@]1(n2ccc(N)nc2=O)O[C@H](COP(=O)(O)OP(=O)(O)OP(=O)(O)O)[C@@H](O)[C@H]1O | Replicase polyprotein 1ab, nsp12 with nsp7/nsp8 (rep, Severe acute respiratory syndrome coronavirus 2, UniProt P0DTD1) | nucleotide binding, substrate |  | templating base G | Kd | 4.7 µM |
| O=C(O)c1cc(O)c(O)c(O)c1 | rep main protease | inactivator |  | 37 °C | Ki | 3.85 µM |
| CC(C)(C)c1ccc(N(Cc2cc(Cl)cs2)C(=O)Cc2cncc3ccccc23)cc1 | rep main protease | binding, MST |  |  | Kd | 1.9 µM |
| O=C(N/N=C/c1cc(Cl)c(O)c(Cl)c1)c1cc2c(ccc3ccccc32)o1 | rep nsp13 helicase | helicase ATPase activity, inhibitor, Kinase-Glo luminescence |  | 60 min, added: 2.5 µM ATP | IC50 | 22 µM |
| CCC(C(=O)Nc1cc(NC2COC2)ccc1C)n1cc(F)cc2nc(SCc3ccc(F)cc3)nc1-2 (stereo not shown) | rep papain-like protease | binding |  |  | Kd | 0.496 ± 0.081 µM |
| COc1ccc(-c2csc3nc(-c4ccc(C)cc4)oc(=O)c23)cc1OC | rep nsp13 helicase | helicase ATPase activity, inhibitor, Kinase-Glo luminescence |  |  | IC50 | 86 µM |
| C=CS(=O)(=O)N(c1ccc(C(C)(C)C)cc1)C(C(=O)NCCc1cccc(Cl)c1)c1cccnc1 (stereo not shown) | rep main protease | inhibitor, ITC, two-step reversible model |  |  | Ki | 2.3 ± 0.3 µM |
| CSc1ccc(N(Cc2cc(Cl)cs2)C(=O)Cc2cncc3ccccc23)cc1 | rep main protease | enzyme activity, inhibitor |  |  | Ki | 1.9 µM |
| O=C(O[C@@H]1Cc2c(O)cc(O)cc2O[C@@H]1c1ccc(O)c(O)c1)c1cc(O)c(O)c(O)c1 | rep main protease | inactivator |  | 37 °C | Ki | 1.81 µM |
| O=C(Oc1cncc(Cl)c1)c1cc2cc(Cl)ccc2[nH]1 | rep main protease | enzyme activity, inhibitor |  |  | Ki | 0.01 µM |
| COc1ccc(N(Cc2cc(Cl)cs2)C(=O)Cc2cncc3ccccc23)cc1 | rep main protease | enzyme activity, inhibitor |  |  | Ki | 3.7 µM |
| Nc1ncnc2c1c(I)cn2[C@@H]1O[C@H](CO)[C@@H](O)[C@H]1O | rep nsp12 with nsp14/nsp10 | RdRp activity, inhibitor, CoV-RdRp-Gluc reporter | HEK293T, SARS-CoV-2 | with proofreading, added: nsp7, nsp8, nsp10 and nsp14 | EC50 | 1.42 µM |
| COc1ccc(O)c(C=NN2C(=O)c3ccccc3NC2c2cc(OC)ccc2O)c1 (stereo not shown) | rep main protease | viral replication, GFP reporter | HEK293T, SARS-CoV-2 | 48 h | EC50 | 6.5 µM |
| Cc1ccccc1NC(=O)CSc1nnc(-c2ccco2)c(-c2ccco2)n1 | rep nsp13 helicase | helicase ATPase activity, inhibitor, Kinase-Glo luminescence |  | 60 min, added: 2.5 µM ATP | IC50 | 26 µM |
| O=C(O)c1ccccc1-c1c2cc(Br)c(=O)cc-2oc2[c]([Hg+])c(O)c(Br)cc12 | rep main protease | binding, SPR |  | first site heterogeneous model | Kd | 1.8 ± 0.01 µM |
| Cc1cc(O)n2nc(-c3ccsc3-n3c(C)ccc3C)cc2n1 | rep nsp13 helicase | helicase ATPase activity, inhibitor, Kinase-Glo luminescence |  |  | IC50 | 57 µM |
| CCC(C(=O)Nc1cc(NC2CCOC2)ccc1C)n1cc(Br)cc2nc(SCc3ccc(F)cc3)nc1-2 (stereo not shown) | rep papain-like protease | binding |  |  | Kd | 1.46 ± 0.117 µM |
| CCOc1ccc(/C=C/C(=O)c2cc(Br)ccc(=O)c2O)cc1 | rep nsp13 helicase | helicase ATPase activity, inhibitor, Kinase-Glo luminescence |  | 60 min, added: 2.5 µM ATP | IC50 | 6 µM |
| Nc1nc(F)nc2c1ncn2[C@@H]1O[C@H](CO)[C@@H](O)[C@@H]1O | Replicase polyprotein 1ab, nsp12 RdRp (rep, Severe acute respiratory syndrome coronavirus 2, UniProt P0DTD1) | RdRp activity, inhibitor | HEK293T | 24 h, added: nsp7 and nsp8 | EC50 | 1.06 µM |
| O=C1CC(c2ccco2)CC(=O)C1=CNc1cc(Cl)ccc1O (stereo not shown) | rep nsp13 helicase | helicase ATPase activity, inhibitor, Kinase-Glo luminescence |  |  | IC50 | 84 µM |
| CC(C)(C)c1ccc(N(C(=O)CCl)C(C(=O)NC2CCCCC2)c2cccnc2)cc1 (stereo not shown) | rep main protease | inhibitor, ITC, two-step reversible model |  |  | Ki | 16 ± 2 µM |

For quick reference, copied from above:
| Structure (SMILES) | target | test | system | setting | endpoint | result |
| --- | --- | --- | --- | --- | --- | --- |
| COc1ccc(-c2csc3nc(-c4ccc(C)cc4)oc(=O)c23)cc1OC | rep nsp13 helicase | helicase ATPase activity, inhibitor, Kinase-Glo luminescence |  |  | IC50 | 86 µM |
| C=CS(=O)(=O)N(c1ccc(C(C)(C)C)cc1)C(C(=O)NCCc1cccc(Cl)c1)c1cccnc1 (stereo not shown) | rep main protease | inhibitor, ITC, two-step reversible model |  |  | Ki | 2.3 ± 0.3 µM |
